Assay results gathered from unrelated publications.
Compare with care: the assays were run in different laboratories. ± marks the error that the study gave.

With CCN1CCOCC1c1ccc(Nc2c(-c3ccc(OC(F)(F)F)cc3)cnc3cc(Cl)ccc23)cc1 (stereo not shown) the IC50 was at least 0.25 µM (Plasmodium falciparum; parasite growth, SYBR Green; D6; 72 h, blood stage).
O=C1CSC(=S)N1/N=C/c1cn(Cc2ccccc2)c2ccc([N+](=O)[O-])cc12 has an IC50 of 2.44 µM (Leishmania major; parasite growth, resazurin; THP-1; 72 h, intracellular, amastigote).
With O=[N+]([O-])c1ccc(/C=N/N=C/c2ccccc2)o1 the IC50 was over 7 µM (Leishmania major; parasite growth; intracellular, amastigote).
With CCCCSC[C@H]1CN(Cc2c[nH]c3c(N)ncnc23)C[C@@H]1O the IC50 was 1.5 ± 0.8 µM (Campylobacter jejuni; colony formation; Mueller-Hinton agar; 6 days).
With C#CCn1cc(/C=N/N2C(=O)CSC2=S)c2cc([N+](=O)[O-])ccc21 the IC50 was over 59 µM (Trypanosoma congolense; trypomastigotes, IL3000).
CCS(=O)(=O)Nc1ccc(NC(=O)c2cc(C(F)(F)F)cc(C(F)(F)F)c2)cc1F gave an IC50 of about 8 µM (Trypanosoma brucei brucei; cell growth; Lister 427; 48 h).
Cc1ccc(Cn2cc(/C=N/N3C(=O)CSC3=S)c3cc([N+](=O)[O-])ccc32)cc1 has an IC50 of over 10 µM (Leishmania major; parasite growth, resazurin; THP-1; 24 h, intracellular, amastigote).
The IC50 of C=C1CC[C@@H]2[C@](C)(CCC[C@@]2(C)C(=O)O)[C@H]1CC[C@H](C)CC(=O)O is reported as 3.5 mg/L (Leishmania amazonensis; 72 h, pH 4.6, axenic amastigotes).
O=Cc1cccc(-c2cc3cccc([N+](=O)[O-])c3[nH]c2=O)c1 has an IC50 of 5.6 µM (Trypanosoma brucei; parasite growth, resazurin; 74 h, trypomastigote).
CC(C)(C)CC(C)(C)Nc1c(-c2cccc(C#N)c2)nc2ncccn12 gave an IC50 of under 10 µM (Leishmania amazonensis; fluorimetry; peritoneal macrophages, RFP; 72 h, intracellular amastigotes).
CS(=O)(=O)c1ccc(-c2cnc(N)c(-c3ccc(C(F)(F)F)nc3)c2)cc1 gave an IC50 of 5.1 µM (Plasmodium cynomolgi; hypnozoite (small EEF) growth; primary rhesus hepatocytes; day 3, compound added at 72 h).
For FC(F)(F)Oc1ccc(-c2cnc3cc(Cl)ccc3c2Nc2ccc(N3CCOCC3)cc2)cc1, the IC50 was at least 0.25 µM (Plasmodium falciparum; parasite growth, SYBR Green; D6; 72 h, blood stage).
O=c1[nH]c2c([N+](=O)[O-])cccc2cc1-c1cccnc1 has an IC50 of 2.8 µM (Trypanosoma brucei; parasite growth, resazurin; 74 h, trypomastigote).
Cc1[nH]c2ccccc2c1CCNCc1ccc(/C=C/C(=O)NO)cc1 has an IC50 of 295 µg (Lucilia cuprina; larval weight gain; LS strain, larvae on impregnated cotton wool; 24 h).
O=c1c(O)c(-c2cc(O)c(O)c(O)c2)oc2cc(O)cc(O)c12 has an IC50 of 3.5 ± 0.4 µM (human alphaherpesvirus 2; viral replication; HEp-2, 333; 24 h).
Nc1ccccc1NC(=O)c1ccc(CNC(=O)OCc2cccnc2)cc1 has an IC50 of 680 µg (Lucilia cuprina; larval weight gain; LS strain, larvae on impregnated cotton wool; 24 h).
Clc1ccc2c(Nc3ccc(N4CCN(C5CC5)CC4)cc3)ccnc2c1 gave an IC50 of 0.068 µM (Plasmodium falciparum; parasite growth, SYBR Green; DD2; 72 h, drug-resistant strain, blood stage).
The IC50 of CN(C)Cc1ccc(S(=O)(=O)n2ccc(/C=C/C(=O)NO)c2)cc1 is reported as 556 µg (Lucilia cuprina; larval weight gain; LS strain, larvae on impregnated cotton wool; 24 h).
CC(C)(C)OC(=O)N1CCN(c2ccc(Nc3ccnc4cc(Cl)ccc34)cc2)CC1 gave an IC50 of 0.069 µM (Plasmodium falciparum; parasite growth, SYBR Green; D6; 72 h, blood stage).
With CCCC(=O)OCOC(=O)C(C)(C)C the IC50 was over 1000 µg (Lucilia cuprina; larval weight gain; LS strain, larvae on impregnated cotton wool; 24 h).
For O=C(Nc1cccc(CO)c1)c1ccccc1Sc1ccc([N+](=O)[O-])cc1, the IC50 was 52 µM (Human immunodeficiency virus 1; viral replication; MT4; 7 days).
CN1CCc2c(c3ccccc3n2Cc2ccc(C(=O)NO)cc2)C1 has an IC50 of over 1000 µg (Lucilia cuprina; larval weight gain; LS strain, larvae on impregnated cotton wool; 24 h).
With COc1ccccc1C(=O)Nc1ccccc1Oc1ccc(N(C)C)cc1 the IC50 was 68 µM (Human immunodeficiency virus 1; viral replication; MT4; 7 days).
O=C1CSC(=S)N1/N=C/c1c[nH]c2ccc([N+](=O)[O-])cc12 has an IC50 of over 10 µM (Leishmania major; parasite growth, resazurin; THP-1; 24 h, intracellular, amastigote).
O=c1[nH]c2c([N+](=O)[O-])cccc2cc1-c1ccc(CO)cc1 gave an IC50 of 1.9 µM (Trypanosoma brucei; parasite growth, resazurin; 74 h, trypomastigote).
O=C(Nc1ccccc1F)c1ccccc1Sc1ccc([N+](=O)[O-])cc1 has an IC50 of over 100 µM (Human immunodeficiency virus 1; viral replication; MT4; 7 days).
N=C(N)c1ccc(N=NNc2ccc(C(=N)N)cc2)cc1 gave an IC50 of 0.09 µM (Trypanosoma congolense; trypomastigotes, IL3000).
The IC50 of CCN1CCOCC1c1ccc(Nc2ccnc3cc(Cl)ccc23)cc1 (stereo not shown) is reported as at least 0.25 µM (Plasmodium falciparum; parasite growth, SYBR Green; DD2; 72 h, drug-resistant strain, blood stage).
The IC50 of O=c1[nH]c2c([N+](=O)[O-])cccc2cc1-c1cccc(CO)c1 is reported as 1.5 µM (Trypanosoma brucei; parasite growth, resazurin; 74 h, trypomastigote).
The IC50 of O=C1NC(=S)S/C1=C\c1cn(Cc2ccc(F)cc2)c2ccc([N+](=O)[O-])cc12 is reported as over 10 µM (Leishmania major; parasite growth, resazurin; THP-1; 24 h, intracellular, amastigote).
For CCCCN1CCC(c2ccc(Nc3ccnc4cc(Cl)ccc34)cc2)CC1, the IC50 was 0.004 µM (Plasmodium falciparum; parasite growth, SYBR Green; D6; 72 h, blood stage).
The IC50 of COc1ccccc1CC(=O)Nc1ccccc1Sc1ccc([N+](=O)[O-])cc1 is reported as 53.6 µM (Human immunodeficiency virus 1; viral replication; MT4; 7 days).
The IC50 of O=Cc1c[nH]c2ccc([N+](=O)[O-])cc12 is reported as over 10 µM (Leishmania major; parasite growth, resazurin; THP-1; 72 h, intracellular, amastigote).
The IC50 of O=C(Cc1ccccc1F)Nc1ccccc1Sc1ccc([N+](=O)[O-])cc1 is reported as over 100 µM (Human immunodeficiency virus 1; viral replication; MT4; 7 days).
The IC50 of O=C1CSC(=S)N1/N=C/c1cn(Cc2cccc(Cl)c2)c2ccc([N+](=O)[O-])cc12 is reported as over 10 µM (Leishmania major; parasite growth, resazurin; THP-1; 24 h, intracellular, amastigote).
The IC50 of COc1ccc(-c2nc(N3CCOCC3)c3sc(CN(C)c4ncc(C(=O)NO)cn4)cc3n2)cn1 is reported as 12.2 µg (Lucilia cuprina; larval weight gain; LS strain, larvae on impregnated cotton wool; 24 h).
O=C(Nc1ccccc1O)c1ccccc1Sc1ccc([N+](=O)[O-])cc1 has an IC50 of 50 µM (Human immunodeficiency virus 1; viral replication; MT4; 7 days).

For quick reference, copied from above:
N=C(N)c1ccc(N=NNc2ccc(C(=N)N)cc2)cc1 gave an IC50 of 0.09 µM (Trypanosoma congolense; trypomastigotes, IL3000).
The IC50 of CCN1CCOCC1c1ccc(Nc2ccnc3cc(Cl)ccc23)cc1 (stereo not shown) is reported as at least 0.25 µM (Plasmodium falciparum; parasite growth, SYBR Green; DD2; 72 h, drug-resistant strain, blood stage).
The IC50 of O=c1[nH]c2c([N+](=O)[O-])cccc2cc1-c1cccc(CO)c1 is reported as 1.5 µM (Trypanosoma brucei; parasite growth, resazurin; 74 h, trypomastigote).
The IC50 of O=C1NC(=S)S/C1=C\c1cn(Cc2ccc(F)cc2)c2ccc([N+](=O)[O-])cc12 is reported as over 10 µM (Leishmania major; parasite growth, resazurin; THP-1; 24 h, intracellular, amastigote).
